# Measurements gathered from unrelated publications.
# Every numbered part comes from another study and shows a few of its results, in no order. Positions count from the first letter of the parent shown.

# Block 1 — target: CCND1, cyclin fold, Cln2 fusion (human); technique: yeast growth competition, sequencing; sample: yeast; notes: weak parent motif; baseline: not given; reading: higher = stronger binding
# Starting sequence: SAMHD1 docking peptide (human); ASKSRVQLFKDDP
Substitution,normalised enrichment score
ASKSRVQLFKQDP [D11Q],0.0656
ASKSRVQIFKDDP [L8I],-0.14
ASKSRGQLFKDDP [V6G],0.235
ASKSRWQLFKDDP [V6W],-0.18
ASWSRVQLFKDDP [K3W],0.516
ASKCRVQLFKDDP [S4C],2.18
ASKSRVQLFKDQP [D12Q],0.195
ASKFRVQLFKDDP [S4F],0.402
ASKSRVQLIKDDP [F9I],0.254
ASKSRVQLFKTDP [D11T],0.293
ASKSRVQHFKDDP [L8H],-0.172
ASKSRVQNFKDDP [L8N],0.172
ASKSRCQLFKDDP [V6C],0.146
ASKSRVCLFKDDP [Q7C],0.444
ASKSRVQLFKSDP [D11S],0.626
ASKSRVQLFTDDP [K10T],0.391
AQKSRVQLFKDDP [S2Q],0.361
ASCSRVQLFKDDP [K3C],0.697
ASKSRVQLFRDDP [K10R],0.278

# Block 2 — technique: protein binding microarray; molecule type: double-stranded DNA, one strand shown; sample: in vitro; tested at: not given; baseline: not given; reading: higher = stronger binding
# Target: Histone acetyltransferase KAT6A, both winged helices, GST fusion (KAT6A, Homo sapiens, UniProt Q92794, residues 1-181)
# Notes: 8-mer, flanks averaged, mean of 2 arrays, mostly near background
# Construct (chain): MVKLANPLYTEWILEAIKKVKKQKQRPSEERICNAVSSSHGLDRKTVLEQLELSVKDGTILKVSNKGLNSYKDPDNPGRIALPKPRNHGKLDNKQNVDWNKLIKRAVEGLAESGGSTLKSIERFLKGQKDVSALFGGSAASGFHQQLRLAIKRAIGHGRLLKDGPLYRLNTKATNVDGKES
Oligonucleotide,E-score
GAGCATGA,0.00335
ACATGAGC,0.122
AGTGACGA,-0.0751
CCGTACGC,0.366
AGTGTTAA,0.0539
AGCGGAAG,0.179
ACAAGAAT,-0.0967
TAGACACA,-0.101
CCTTCCCA,-0.165
CTGTATGA,0.135
CCGACTAG,0.0395
GTCCCCGA,0.0488
AGCTGTAA,-0.146
CTATTGTA,0.0962
CGAAGAGC,0.158
AACAGTCG,0.0435
CCGTCAAC,0.189
TATGGGCA,-0.0587
AGCTTAAG,-0.194
ACCAGAGG,-0.239
TCTTGCCA,-0.2

# Block 3 — technique: RNA Bind-n-Seq; molecule type: RNA; sample: in vitro; tested at: 365 nM; baseline: no-protein control; reading: higher = stronger binding
# Target: RNA binding protein fox-1 homolog 2, RRM domain, GST-SBP tag (RBFOX2, Homo sapiens, UniProt O43251-10, residues 100-194)
# Notes: natural RNA segment, single round, ends assumed
# All sequences stand within: GGGAGUUCUACAGUCCGACGAUC … UGGAAUUCUCGGGUGCCAA
# Construct (chain): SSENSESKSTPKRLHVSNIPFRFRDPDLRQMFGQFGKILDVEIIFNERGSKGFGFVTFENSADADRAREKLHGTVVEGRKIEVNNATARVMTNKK
Oligonucleotide,RBNS enrichment (R)
CUGUUGCAUUUUUGCAAUCUUGUGUCCCGCUCGGUGAUGUUCUACAAACUCUGUUUUAAGGUUGAGAAAGUUUCAAGGGUGAAGAUCUCAAAACAGUGCUAAAAUCAAAG,0.498
GAACCUAGUCAGUGCUGACGCCUUCAUUUGGCUCUGCAGUCAACUUUCCAAGGCACGGUGUGGACGCAUCUGUCACCGACCCGAGGUGACGUGGUACUGGGAUGUGAGUG,0.46
UUGCUGGAACAGGACGGUUUGGAUGUUUAUAGGGGAAAUGGAUAGUAGAUGUUAGGACCAACUGAGAAGGUCCAACACAAGUGUGGAUUUUUCCAUGUGUCAAAAAUCUC,0.761
AGCCAAUCUGUGCUCUGGGCCUUGCCUCCCAGGCCACAGUCCUGCUCCCAACUUGUUUGUCCCUAGAAGCAGACAACUUUGAACCAAAAGCAUCUCAGUCAAGCAUCUAA,0.489
AGGUUCCGUGUGGAGGUGGCACUGGGCCGGGCCUCCCUCUCAGGCUCCUUUGCUGCCCACUUGUAAGUUUAAAUAAGGACACCGCCCUACACAAACCUCACCCCUGUCAC,0.39
AAGGGUAUGCCCCUGGCCACUAGAGAUCCUUAGAAACAGGUCUCUGAAGGAAAGGAGAUGCCAGGAUGCUACUCCAUUCCUUCUCUGGGAAUUGCCAGUCCAACUUUUCC,0.385
AAGGGGUGAACUUCAGAUGGCUCUUCUUGGUUGUCAGCCCGACUACAUUUGGAAUUAACUGAAGCCAAACUGCUGGGUACACCUGUGAGGAUUUUUUUUUCCUUAAGUAA,0.348
CUACUUACAUUGUGUUCAUAUAUUUUGAAAAGACUUCUCUACUUUACCGUGGUCCUCCGUUGUGAGUGUUGCAGGGCUAUAGGAAGACAAAGCCUGGGGUACCCGCAUCU,0.673
UCCAGUUCUUGAUAGUUGGGGGCAGAGCCCCCACACUCCCUUAUACUUCCUGACUGUGCCAGGGCUUGGGUUCCCCACCACCUCCUCAAUGGAGCAAAGACUCCUGCUAG,0.515
AUCAGCUCCUUCCUGGAGACUGCCCAGCUAAAGCAAUAUGCAUUUAAAUACAGUCUUCCAUUUGCAAGGGAAAAGUCUCUUGUAAUCCGAAUCUCUUUUUGCUUUCGAAC,0.42
UGAGCUUCUCUCUUUGAAGGAUUCUAACAGAACAAAGCUGCUGAUCAACCUAAGUUGGAAACAGAAAGUGUAAUUAAUAUAACUUAAAUGCAUGUUUGGCAGUUCCAUGU,2.31
UCUUAGAAUUUUGAGGAAAAUCUGGGACUUGAGACCUGGAUUCUAACAGACCAACUGCAUGUGUGUCUGUAGGUCUCAGUUUCCACAUUCAUACAGUGAGGGUGUUAAGU,20.9

# Block 4 — technique: DHFR PCA, deep sequencing; sample: yeast; added: (+)-ABA 200 µM; baseline: wild-type fitted maximum; reading: higher = stronger binding
# Target: ABI1, truncated, D143A, DHFR fusion (Arabidopsis thaliana)
# Notes: methotrexate growth selection, single substitutions
# Starting sequence: PYL1, truncated, DHFR fusion (Arabidopsis thaliana); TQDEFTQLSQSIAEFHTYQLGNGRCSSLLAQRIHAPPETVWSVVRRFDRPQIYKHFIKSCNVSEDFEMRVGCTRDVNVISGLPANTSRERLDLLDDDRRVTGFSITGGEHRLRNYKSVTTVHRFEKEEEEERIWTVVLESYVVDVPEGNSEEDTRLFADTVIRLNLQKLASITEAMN
Substitution,relative binding score
F66I,95.3%
V78P,69.2%
M176S,98.4%
N77Y,106%
N114Q,67.1%
R24N,91.3%
K54W,18.8%
I172F,86.7%
E89W,-6.7%
N114I,-0.932%
Q2L,100%
N149E,44.4%
E131L,103%
E131H,102%
Y53D,0.152%
T154Y,-4.44%
E67M,95.1%
T120H,3.08%
R49A,102%
V44T,67.8%
N61R,103%
V100P,-9.26%
E174S,89.9%
L91H,6.46%
T119Q,93.9%

# Block 5 — technique: universal PBM; molecule type: double-stranded DNA, one strand shown; sample: in vitro; tested at: 600 nM; reading: higher = stronger binding
# Target: Sal-like protein 4, full length isoform A (SALL4, Homo sapiens, UniProt Q9UJQ4, residues 1-1053)
# UniProt Q9UJQ4, sequence (whole entry, looked up): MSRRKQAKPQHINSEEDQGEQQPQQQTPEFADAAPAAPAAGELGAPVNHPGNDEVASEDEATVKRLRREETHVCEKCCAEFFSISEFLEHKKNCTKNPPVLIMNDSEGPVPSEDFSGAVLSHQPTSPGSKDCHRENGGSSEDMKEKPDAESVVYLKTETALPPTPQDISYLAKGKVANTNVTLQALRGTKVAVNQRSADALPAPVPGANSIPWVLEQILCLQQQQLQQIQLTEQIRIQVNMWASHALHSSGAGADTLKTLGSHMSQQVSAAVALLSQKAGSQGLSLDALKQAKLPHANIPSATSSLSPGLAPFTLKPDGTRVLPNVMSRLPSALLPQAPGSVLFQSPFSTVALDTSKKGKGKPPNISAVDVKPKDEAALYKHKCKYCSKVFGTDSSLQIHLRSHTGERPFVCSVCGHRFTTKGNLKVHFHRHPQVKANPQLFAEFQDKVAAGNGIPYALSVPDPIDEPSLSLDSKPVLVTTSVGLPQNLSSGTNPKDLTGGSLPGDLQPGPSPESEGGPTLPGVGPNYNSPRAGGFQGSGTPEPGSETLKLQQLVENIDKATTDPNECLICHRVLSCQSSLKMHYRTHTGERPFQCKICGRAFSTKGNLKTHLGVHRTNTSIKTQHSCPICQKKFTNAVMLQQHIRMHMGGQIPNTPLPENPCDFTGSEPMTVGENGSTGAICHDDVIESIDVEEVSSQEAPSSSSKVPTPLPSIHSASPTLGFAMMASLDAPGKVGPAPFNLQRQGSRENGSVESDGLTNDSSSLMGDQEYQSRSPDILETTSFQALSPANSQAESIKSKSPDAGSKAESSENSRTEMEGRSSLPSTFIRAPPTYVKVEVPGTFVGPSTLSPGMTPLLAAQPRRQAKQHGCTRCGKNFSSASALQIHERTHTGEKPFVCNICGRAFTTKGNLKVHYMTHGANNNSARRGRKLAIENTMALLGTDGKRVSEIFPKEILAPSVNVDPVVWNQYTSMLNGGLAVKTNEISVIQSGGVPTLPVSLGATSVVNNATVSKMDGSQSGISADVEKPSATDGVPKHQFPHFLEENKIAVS
# Notes: 8-mer, flanks averaged, mean of replicates
Oligonucleotide,E-score
GACGACCA,-0.0759
ACGGTACT,-0.033
ATGTCTGC,-0.0823
GGTGGACA,-0.128
GCCCTTTA,-0.103
CCACACTC,-0.108
ACCTTAGA,0.00598
GAATAGGC,-0.0135
GATCACAC,-0.119
CAACTAAA,0.166
GCCGACCC,-0.398
AAGATGCG,0.0272
CGAGTTTA,-0.0328
GAGTTCAC,-0.173
ATCTCTTA,0.178
ATTTAATA,0.417
AATCGGCT,0.083
ATAGGCTG,0.00854
CCCATTTC,-0.0538
TAGAGCGA,-0.0884
CCGTCAGA,-0.132
CAGTAAGC,-0.0908
CCTAGTAG,-0.0781
AGAACTAA,0.0939
AACCTTTC,-0.0715

# Block 6 — target: JDP2, bZIP domain (human); technique: DHFR protein complementation; sample: yeast; baseline: wild-type JUN-FOS pair; reading: higher = stronger binding
# Notes: single substitutions, most at no-binding floor
# Starting sequence: JUN, bZIP domain (human); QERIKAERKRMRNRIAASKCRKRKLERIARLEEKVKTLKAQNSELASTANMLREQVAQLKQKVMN; partner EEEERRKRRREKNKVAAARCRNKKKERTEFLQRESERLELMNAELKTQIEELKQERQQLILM
Substitution,binding fitness [natural log]
E32R,0.264
K36A,0.347
K34P,-0.66
Q41I,0.315
A29G,0.254
E33N,0.174
L45Q,-0.0095
Q41F,-0.488
A29S,0.243
A49T,0.132
T37H,0.391
K34Y,0.286
A29F,0.208
V35P,-0.909
L52Q,-0.351
T37G,0.328
N42Q,0.246
K39E,0.35
L31S,0.112
A29Q,0.222
S47R,0.253
